Measurements collected from several papers.
Compare with care: the assays were run in different laboratories. ± gives the spread as reported.

SMILES = NC12CNCCNCC(NCc3ccc(CNC(=O)CCCC(=O)NCc4ccc(-c5nncnn5)cc4)cc3)(CNCCNC1)CNCCNC2.[64Cu+2]; system = athymic nude mice SW1222 xenograft, blood; setting = 4 h post injection, 48 h accumulation interval, with: huA33-TCO pretargeting; tissue uptake = 1.78 ± 0.28 %ID/g
SMILES = O=C([O-])c1cccc(CN(CCN(Cc2cn(Cc3ccccc3)nn2)Cc2cccc(C(=O)[O-])n2)Cc2cn(Cc3ccccc3)nn2)n1.[64Cu+2]; system = healthy athymic nude mice, lung; setting = intravenous, 4 h; tissue uptake = 8.24 %ID/g
SMILES = CCCC[C@H](NC(=O)CNC(=O)CNC(=O)CN1CCN(CC(=O)O)CCN(CC(=O)O)CCN(CC(=O)O)CC1)C(=O)N[C@H]1CC(=O)NCCCC[C@@H](C(N)=O)NC(=O)[C@H](Cc2c[nH]c3ccccc23)NC(=O)[C@H](CCCNC(=N)N)NC(=O)[C@@H](Cc2ccccc2)NC(=O)[C@H](Cc2c[nH]cn2)NC1=O [gallium-67 labelled]; system = female C57 mice, B16/F1 melanoma, kidneys; setting = intravenous, 0.037 MBq, 24 h; tissue uptake = 5.6 ± 1.24 %ID/g
SMILES = O=C([O-])CN1CCN(CC(=O)[O-])CCN(CC(=O)NCCc2ccc3c(c2)C2C=CCC2C(c2cc4c(cc2Br)OCO4)N3)CCN(CC(=O)[O-])CC1.[111In+3] (centres unmarked); system = mice with Hec50 tumour xenograft, kidneys; setting = 2 h, with: G-1 5 µg blocking; tissue uptake = 1 ± 0.16 %ID/g
SMILES = CN1C(=O)[C@@H](Cc2ccc(O)c(I)c2)NC(=O)CNC(=O)[C@H](Cc2ccc3ccccc3c2)NC(=O)[C@H](CCCNC(=N)N)NC(=O)[C@H]1CCCNC(=O)c1ccc(CNC(=O)CN2CCN(CC(=O)O)CCN(CC(=O)O)CCN(CC(=O)O)CC2)cc1 [lutetium-177 labelled]; assay = measured: 177Lu radioactivity; system = female CB-17 SCID mice, Daudi xenograft, pancreas; setting = intravenous, 0.16 nmol per mouse, 48 h; tissue uptake = 0.08 ± 0.01 %ID/g
SMILES = O=C([O-])CN1CCN(CC(=O)[O-])CCN(CC(=O)[O-])CCN(CC(=O)[O-])CC1.[64Cu+2]; system = healthy athymic nude mice, liver; setting = intravenous, 4 h; tissue uptake = 1.64 %ID/g
SMILES = CCCC[C@@H]1NC(=O)[C@@H](NC(=O)[C@H](CCC(=O)O)NC(=O)CNC(=O)CN2CCN(CC(=O)O)CCN(CC(=O)O)CCN(CC(=O)O)CC2)CCCCNC(=O)C[C@@H](C(N)=O)NC(=O)[C@H](C(C)C)NC(=O)[C@@H]2CCCN2C(=O)[C@H](CCCNC(=N)N)NC(=O)CNC(=O)[C@H](Cc2c[nH]c3ccccc23)NC(=O)[C@H](CCCNC(=N)N)NC(=O)[C@@H](Cc2ccccc2)NC(=O)[C@H](Cc2c[nH]cn2)NC(=O)[C@H](CCC(=O)O)NC1=O [gallium-67 labelled]; system = C57 mice, B16/F10 lung metastases, stomach; setting = intravenous, 0.037 MBq/mouse, 4 h; tissue uptake = 0.18 ± 0.13 %ID/g
SMILES = CCCC[C@H](NC(=O)CNC(=O)CNC(=O)CN1CCN(CC(=O)O)CCN(CC(=O)O)CC1)C(=O)N[C@H]1CC(=O)NCCCC[C@@H](C(N)=O)NC(=O)[C@H](Cc2c[nH]c3ccccc23)NC(=O)[C@H](CCCNC(=N)N)NC(=O)[C@@H](Cc2ccccc2)NC(=O)[C@H](Cc2c[nH]cn2)NC1=O [gallium-67 labelled]; system = female C57 mice, B16/F1 melanoma, bone; setting = intravenous, 0.037 MBq, 2 h; tissue uptake = 0.91 ± 0.56 %ID/g

Repeated from above:
SMILES = CCCC[C@H](NC(=O)CNC(=O)CNC(=O)CN1CCN(CC(=O)O)CCN(CC(=O)O)CC1)C(=O)N[C@H]1CC(=O)NCCCC[C@@H](C(N)=O)NC(=O)[C@H](Cc2c[nH]c3ccccc23)NC(=O)[C@H](CCCNC(=N)N)NC(=O)[C@@H](Cc2ccccc2)NC(=O)[C@H](Cc2c[nH]cn2)NC1=O [gallium-67 labelled]; system = female C57 mice, B16/F1 melanoma, bone; setting = intravenous, 0.037 MBq, 2 h; tissue uptake = 0.91 ± 0.56 %ID/g
